Assay results collected from several papers.
Numbered parts are unrelated; each lists some results of a single study. Changes are numbered by the printed parent chain.

Study 1
Target: CCND1, cyclin fold, Cln2 fusion (human)
Method: yeast growth competition, sequencing
Sample: yeast
Notes: weak parent motif
Reference: not given
Reading: higher = stronger binding
Starting sequence: PKMYT1 docking peptide (human); SFEPRNLLSLFED; partner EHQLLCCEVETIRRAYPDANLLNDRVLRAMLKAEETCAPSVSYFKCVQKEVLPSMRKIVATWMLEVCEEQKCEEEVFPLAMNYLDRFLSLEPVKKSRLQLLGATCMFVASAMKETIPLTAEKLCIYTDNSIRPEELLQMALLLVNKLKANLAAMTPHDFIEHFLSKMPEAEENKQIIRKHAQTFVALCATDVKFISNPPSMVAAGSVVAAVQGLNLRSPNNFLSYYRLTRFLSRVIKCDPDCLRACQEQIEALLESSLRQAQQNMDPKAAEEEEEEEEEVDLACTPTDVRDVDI
| Variant | normalised enrichment score |
| --- | --- |
| D13P | 0.824 |
| D13I | 1.34 |
| E3M | 0.875 |
| L10I | 0.566 |
| D13L | 1.43 |
| R5A | 1.34 |
| F2M | 0.278 |
| E3N | 0.505 |

Study 2
Target: Ras GTPase-activating protein-binding protein 1, full length (G3BP1, Homo sapiens, UniProt Q13283)
Chain of UniProt Q13283 (whole entry, looked up): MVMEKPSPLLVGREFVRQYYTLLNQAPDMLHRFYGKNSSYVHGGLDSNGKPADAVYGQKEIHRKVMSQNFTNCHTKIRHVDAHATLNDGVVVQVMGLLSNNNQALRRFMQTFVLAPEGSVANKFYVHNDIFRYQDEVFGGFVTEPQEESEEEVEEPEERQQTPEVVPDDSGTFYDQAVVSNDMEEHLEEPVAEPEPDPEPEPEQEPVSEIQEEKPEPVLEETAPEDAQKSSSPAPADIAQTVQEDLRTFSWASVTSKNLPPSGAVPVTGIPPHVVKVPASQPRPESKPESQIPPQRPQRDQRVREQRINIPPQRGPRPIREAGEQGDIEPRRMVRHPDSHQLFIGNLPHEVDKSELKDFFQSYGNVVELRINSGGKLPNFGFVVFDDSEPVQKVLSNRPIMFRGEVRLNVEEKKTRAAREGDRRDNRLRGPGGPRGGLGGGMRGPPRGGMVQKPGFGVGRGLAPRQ
Method: RNA Bind-n-Seq
Form: RNA
Sample: in vitro
Concentration: 200 nM
Notes: whole 134-nt RNA, ends assumed
With: 150 mM KCl
Reference: input library
Reading: higher = stronger binding
Constant ends, left off below: GGGAGUUCUACAGUCCGACGAUC … UGGAAUUCUCGGGUGUCAAGG
| Strand | log2 enrichment |
| --- | --- |
| UGGCCCUGGUGGCAUGCGGGGAGGAAGAGGUGGCCUCAUGGAUCGUGGUGGUCCCGGUGGAAUGUUCAGAGGGGGCCGUGGUGGAGACAG | -0.0794 |
| UCCUGUGCUACACAUCGUAUGUACCGAAUCGGGGAAAAAGGGGAGGGGUUUUUUUGGGGAAAGUAUUAUGUUACGCCGUUCGGAUCUGCA | 0.621 |
| UCAAGUCCUGUGCUACACAUCGUAUGUACCGAAUCGGGAGGGUGGGAAAAAGGGAAAGUAUUAUGUUACGCCGUUCGGAUCUGCACUUCC | 0.977 |
| AGUCCUGUGCUACACAUCGUAUGUACCGAAUCGGUUUUUUUGGUUUUUGGAAAAAGGAAAGUAUUAUGUUACGCCGUUCGGAUCUGCACU | -1.52 |
| GCAGGAAGUAAAAACAAAUGGAAAUGCUUUGGAUAGUGGCAGGGGUGGGGGUUGCUAAGGAAAGGGUGGGAUGGGAGUGGGUAAAGAGUU | 1.24 |
| ACCAUGCAGGUGGGCAAAAUUGGGAAGUGGGGCAAGGGGGGGAUAGGGAGGGGGGUAACACUUUGGGAACAGGUGGUCCCAGGUCGUUUC | 1.08 |

Study 3
Target: Histone acetyltransferase KAT6A, both winged helices, GST fusion (KAT6A, Homo sapiens, UniProt Q92794, residues 1-181)
Method: protein binding microarray
Form: double-stranded DNA, one strand shown
Sample: in vitro
Concentration: not given
Notes: 8-mer, flanks averaged, mean of 2 arrays, mostly near background
Reference: not given
Reading: higher = stronger binding
Target sequence (chain): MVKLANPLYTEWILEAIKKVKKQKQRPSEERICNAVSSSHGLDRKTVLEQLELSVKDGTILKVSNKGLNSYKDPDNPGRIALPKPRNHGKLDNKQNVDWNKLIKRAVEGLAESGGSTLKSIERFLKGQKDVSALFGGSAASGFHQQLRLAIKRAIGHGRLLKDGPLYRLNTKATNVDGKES
| Strand | E-score |
| --- | --- |
| GCGGATAC | 0.266 |
| ATCGTTAC | 0.027 |
| AATAAGTA | -0.181 |
| GCACAGAA | 0.0286 |
| CGGGTAGC | 0.233 |

Other studies, line by line
| Molecule | target | assay | test system | conditions | how to read | endpoint | value |
| --- | --- | --- | --- | --- | --- | --- | --- |
| PhoQ, residues 284 288 289 292 302 303 SQSLSM | PhoP, residues 12 14 15 18 19 QWHVF (Escherichia coli, UniProt P23836) | Sort-seq, item: YFP reporter | E. coli | PhoQ-PhoP variant library, with: 10 µM Mg2+ | reference: high Mg2+ state, higher = stronger signaling | fold induction | 2.65 |

A few entries again (study 1):
| Variant | normalised enrichment score |
| --- | --- |
| L10I | 0.566 |
| D13L | 1.43 |
